Assay results gathered from unrelated publications.
Numbers after ± are the reported error.
SCTR: Secretin receptor (SCTR, Homo sapiens, UniProt P47872)

CCOC(=O)c1cc2c(N)c(C(=O)OC)sc2nc1C
maximal inhibition (Urea transporter 1 (Homo sapiens, UniProt Q13336); urea permeability, osmotic lysis; human erythrocytes): > 80%

COc1ccc(CNc2nc(-c3ccc(OC)cc3)cc(C(F)(F)F)n2)cc1
Emax (SCTR; increase of tracer binding, TR-FRET; HEK293 membranes; with: Fluo-Sec 6 nM): 131 ± 9.8%

O=C(O)[C@H]1O[C@@H](O[C@@H]2c3cc4ccc5cccc6c7ccccc7c(c3C=C[C@H]2O)c4c56)[C@H](O)[C@@H](O)[C@@H]1O
kcat (UDP-glucuronosyltransferase 1A8 (UGT1A8, Homo sapiens, UniProt Q9HAW9); glucuronidation, substrate; UGT-expressing HEK293 homogenate; normalized to UGT expression): 0.00167 ± 0.000333 s⁻¹

N#Cc1cccc(-c2ccc(=O)n(Cc3cccc(-c4ncc(OCC5CCN(CC(=O)NCCOCCOCCOCCNc6ccc7c(c6)C(=O)N(C6CCC(=O)NC6=O)C7=O)CC5)cn4)c3)n2)c1 (centres unmarked)
Dmax (Hepatocyte growth factor receptor (MET, Homo sapiens, UniProt P08581); degrader; EBC-1): > 95%

CNS(=O)(=O)Nc1cccc(-n2c(=O)n(C3CC3)c(=O)c3c(Nc4ccc(I)cc4F)n(C)c(=O)c(C)c32)c1
outcome (Dual specificity mitogen-activated protein kinase kinase 2 (MAP2K2, Homo sapiens, UniProt P36507); substrate phosphorylation, inhibitor; 1 µM): inhibited

Nc1nc2c(ncn2[C@H]2C[C@H](O)[C@@H](COP(=O)(O)OP(=O)(O)[C@@H](F)P(=O)(O)O)O2)c(=O)[nH]1
kpol (DNA polymerase beta (POLB, Homo sapiens, UniProt P06746, R183A); substrate, pre-steady-state kinetics; incorporation opposite dC in gapped DNA): 0.29 s⁻¹

Cc1cc(=O)oc2c(F)c(OP(=O)(O)O)c(F)cc12
kcat (Tyrosine-protein phosphatase non-receptor type 11 (PTPN11, Homo sapiens, UniProt Q06124, E76A); dephosphorylation, substrate): 52.9 ± 1.78 s⁻¹

[3H]C([3H])([3H])c1cnccc1CN1C[C@@H](c2cc(F)c(F)c(F)c2)CC1=O
loss of specific binding (Synaptic vesicle glycoprotein 2A (SV2A, Homo sapiens, UniProt Q7L0J3); radioligand binding; human Alzheimer disease, frontal cortex P2 fraction; 5 nM; relative to: control brains): ~55.9%

Nc1nc2c(ncn2[C@H]2C[C@H](O)[C@@H](COP(=O)(O)OP(=O)(O)C(F)(F)P(=O)(O)O)O2)c(=O)[nH]1
kpol (DNA polymerase beta (POLB, Homo sapiens, UniProt P06746); nucleotide incorporation rate, substrate, single-turnover kinetics; single-nucleotide gapped DNA; 37 °C, wild type, misincorporation, with: dGTP opposite template A): 0.006 ± 0.0006 s⁻¹

CCCCCCCC/C=C\CCCCCCCC(=O)OC[C@@H]1OCC=C[C@H]1OP(=O)(O)S (some centres unmarked)
Emax (Lysophosphatidic acid receptor 2 (LPAR2, Homo sapiens, UniProt Q9HBW0); agonist, TGFα shedding): 28%

Cc1ccc2c(c1Br)C(O)(CC(=O)c1ccc3c(c1)OCO3)C(=O)N2 (centres unmarked)
koff (Uncharacterized protein (Trypanosoma brucei brucei, UniProt Q386Q8); binding, surface plasmon resonance; Trypanosoma brucei; with: UTP 500 µM): 0.21 ± 0.03 s⁻¹

COc1cccc(-c2cc(C(F)(F)F)nc(NCc3ccccc3)n2)c1
Emax (SCTR; cAMP, agonist): 17%

Cc1cn(C2CC(O)C(COP(=O)(O)OP(=O)(O)C(F)P(=O)(O)O)O2)c(=O)[nH]c1=O (mixture of isomers)
kpol (DNA polymerase beta (POLB, Homo sapiens, UniProt P06746, I260M); nucleotide incorporation rate, substrate, single-turnover kinetics; single-nucleotide gapped DNA; 37 °C, I260M, correct incorporation, with: dTTP opposite template A): 5.6 ± 1.7 s⁻¹

NC(=O)C1CCNC(=O)C(CCCNC(=O)c2cnccn2)NC(=O)C(Cc2ccco2)NC(=O)C(CC=Cc2ccccc2)NC(=O)C=CC(=O)N1 (centres unmarked)
enrichment factor (Vascular endothelial growth factor receptor 2 (KDR, Homo sapiens, UniProt P35968); DNA-templated library selection; one selection round): 0.95
